Measurements pooled from the literature.
Protocols differ between the studies behind these lines.
EGFR L858R: Epidermal growth factor receptor (EGFR, Homo sapiens, UniProt P00533, L858R)
EGFR del747-752/P753S: Epidermal growth factor receptor (EGFR, Homo sapiens, UniProt P00533, del747-752/P753S)
EGFR L861Q: Epidermal growth factor receptor (EGFR, Homo sapiens, UniProt P00533, L861Q)

Compound | target | test | conditions | scale | remaining binding [%]
CN1CCN(Cc2ccc(NC(=O)c3cccc(C#Cc4cnc(N)c5ncccc45)c3)cc2C(F)(F)F)CC1 | EGFR L858R | cell-free assay, competition with immobilised ligand | 50 nM |  | 65
CNC(=O)C1CCN(c2cc(C)c(F)cc2NC(=O)c2ccc(-c3cc(O)ccc3C)c(C)c2)CC1 | EGFR del747-752/P753S | binding, competition with immobilised ligand | 1 µM |  | 49
CCN1CCN(Cc2ccc(C(=O)Nc3ccc(C)c(NCc4cnc5[nH]ccc5c4OC)c3)cc2C(F)(F)F)CC1 | Epidermal growth factor receptor (EGFR, Homo sapiens, UniProt P00533, del746-750) | binding, competition with immobilised ligand | 1 µM |  | 4.4
CNC1C[S+]2CC[S+]3CC[S+](C1)[Ru-4]321([N]=C=S)[n]2c3ccc(OC)cc3c3c4c(c5cc(F)c[n+]1c5c32)C(=O)NC4=O (stereo not shown) | Epidermal growth factor receptor (EGFR, Homo sapiens, UniProt P00533, L858R/T790M) | KinomeScan | 0.1 µM | relative to: untreated | 100
COc1c(Cl)cccc1Nc1c(-c2ccncc2C#C[C@@]2(C)CCCN2C(=O)/C=C/CN(C)C)[nH]c2c1C(=O)NCC2 | Epidermal growth factor receptor (EGFR, Homo sapiens, UniProt P00533) | cell-free assay, competition with immobilised ligand | 3 µM |  | 0
CCN1CCN(Cc2ccc(NC(=O)c3ccc(C)c(NC(=O)c4cncc(-c5cccs5)c4)c3)cc2C(F)(F)F)CC1 | EGFR del747-752/P753S | binding, competition with immobilised ligand | 1 µM |  | 0.3
CNS(=O)(=O)Nc1nccc(Cc2c(C)c3ccc(Oc4ncccc4F)cc3oc2=O)c1F | EGFR L858R | cell-free assay, competition with immobilised ligand | 10 µM |  | 90
Nc1ncc2c(n1)-c1c([nH]c3ccc(C4=CCOCC4)cc13)CCC2 | EGFR L861Q | binding, competition with immobilised ligand | 1 µM |  | 91
CC(C)=CC1OC(C)(C)C2C=C3C(=O)C(Cl)=CC(O)C3C3C(O)C4OC4C(=O)C132 (stereo not shown) | Epidermal growth factor receptor (EGFR, Homo sapiens, UniProt P00533, A750P/del747-749) | cell-free assay, competition with immobilised ligand | 10 µM |  | 78
C=CC(=O)N1CCc2ccc(-n3c(=O)ccc4cnc5ccc(-c6cnn(C)c6)cc5c43)cc21 | EGFR L861Q | KINOMEscan | 1 µM | relative to: DMSO control | 67
